{"data": "Measurements pooled from the literature", "note": "Lines come from different studies, so protocols differ. ± marks the error that the study gave.", "chain of UniProt P41743 (whole entry, looked up)": "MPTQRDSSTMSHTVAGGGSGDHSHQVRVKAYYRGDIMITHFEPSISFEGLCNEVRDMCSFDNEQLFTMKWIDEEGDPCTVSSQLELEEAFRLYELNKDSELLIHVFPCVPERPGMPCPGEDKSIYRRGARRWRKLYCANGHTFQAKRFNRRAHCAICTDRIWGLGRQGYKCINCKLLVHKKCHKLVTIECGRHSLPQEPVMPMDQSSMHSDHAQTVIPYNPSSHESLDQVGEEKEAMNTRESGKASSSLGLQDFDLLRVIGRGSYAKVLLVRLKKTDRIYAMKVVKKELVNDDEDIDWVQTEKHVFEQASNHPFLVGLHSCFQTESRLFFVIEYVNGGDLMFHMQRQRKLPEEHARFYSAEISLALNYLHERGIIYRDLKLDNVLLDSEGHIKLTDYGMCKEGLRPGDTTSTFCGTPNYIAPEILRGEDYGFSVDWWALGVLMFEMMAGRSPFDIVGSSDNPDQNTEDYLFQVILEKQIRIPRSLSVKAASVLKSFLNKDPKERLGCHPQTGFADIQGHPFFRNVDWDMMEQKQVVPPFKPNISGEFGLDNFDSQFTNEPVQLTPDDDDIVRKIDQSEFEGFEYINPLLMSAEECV", "chain of UniProt P11309 (whole entry, looked up)": "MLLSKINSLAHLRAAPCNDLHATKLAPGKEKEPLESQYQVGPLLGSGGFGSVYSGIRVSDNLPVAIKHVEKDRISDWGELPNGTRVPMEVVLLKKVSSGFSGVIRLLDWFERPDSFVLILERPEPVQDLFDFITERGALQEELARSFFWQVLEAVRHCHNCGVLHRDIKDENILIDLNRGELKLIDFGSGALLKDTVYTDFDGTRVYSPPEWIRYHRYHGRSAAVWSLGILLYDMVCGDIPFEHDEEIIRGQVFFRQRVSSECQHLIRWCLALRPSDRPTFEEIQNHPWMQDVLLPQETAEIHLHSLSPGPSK", "chain of UniProt P07026 (whole entry, looked up)": "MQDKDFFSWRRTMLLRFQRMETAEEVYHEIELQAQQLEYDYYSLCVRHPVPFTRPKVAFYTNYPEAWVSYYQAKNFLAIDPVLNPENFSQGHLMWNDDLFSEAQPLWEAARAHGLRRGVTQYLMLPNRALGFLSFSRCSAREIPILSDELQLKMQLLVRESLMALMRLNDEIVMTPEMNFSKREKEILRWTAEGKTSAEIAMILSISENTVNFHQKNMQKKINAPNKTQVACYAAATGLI", "chain of UniProt P22455 (whole entry, looked up)": "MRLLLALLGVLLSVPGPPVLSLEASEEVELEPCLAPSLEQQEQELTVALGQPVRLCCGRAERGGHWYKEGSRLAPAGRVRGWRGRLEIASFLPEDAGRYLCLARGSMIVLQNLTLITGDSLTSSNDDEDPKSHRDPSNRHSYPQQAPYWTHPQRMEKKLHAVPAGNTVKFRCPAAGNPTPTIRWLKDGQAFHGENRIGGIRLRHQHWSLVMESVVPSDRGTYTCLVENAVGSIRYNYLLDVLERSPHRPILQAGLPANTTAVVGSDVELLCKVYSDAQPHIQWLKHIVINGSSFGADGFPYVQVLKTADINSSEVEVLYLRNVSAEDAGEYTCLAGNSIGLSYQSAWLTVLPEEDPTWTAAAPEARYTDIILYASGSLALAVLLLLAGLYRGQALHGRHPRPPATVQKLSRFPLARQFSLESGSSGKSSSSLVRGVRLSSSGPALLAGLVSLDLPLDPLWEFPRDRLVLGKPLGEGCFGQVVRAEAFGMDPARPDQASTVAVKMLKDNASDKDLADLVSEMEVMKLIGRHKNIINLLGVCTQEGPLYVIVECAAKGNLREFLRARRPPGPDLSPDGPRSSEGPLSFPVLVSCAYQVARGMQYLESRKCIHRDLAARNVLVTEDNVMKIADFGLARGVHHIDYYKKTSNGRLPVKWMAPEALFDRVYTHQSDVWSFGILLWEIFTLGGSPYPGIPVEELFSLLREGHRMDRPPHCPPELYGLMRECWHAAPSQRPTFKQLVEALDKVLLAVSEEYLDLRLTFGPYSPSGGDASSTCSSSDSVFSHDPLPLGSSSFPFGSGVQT", "chain of UniProt P43403 (whole entry, looked up)": "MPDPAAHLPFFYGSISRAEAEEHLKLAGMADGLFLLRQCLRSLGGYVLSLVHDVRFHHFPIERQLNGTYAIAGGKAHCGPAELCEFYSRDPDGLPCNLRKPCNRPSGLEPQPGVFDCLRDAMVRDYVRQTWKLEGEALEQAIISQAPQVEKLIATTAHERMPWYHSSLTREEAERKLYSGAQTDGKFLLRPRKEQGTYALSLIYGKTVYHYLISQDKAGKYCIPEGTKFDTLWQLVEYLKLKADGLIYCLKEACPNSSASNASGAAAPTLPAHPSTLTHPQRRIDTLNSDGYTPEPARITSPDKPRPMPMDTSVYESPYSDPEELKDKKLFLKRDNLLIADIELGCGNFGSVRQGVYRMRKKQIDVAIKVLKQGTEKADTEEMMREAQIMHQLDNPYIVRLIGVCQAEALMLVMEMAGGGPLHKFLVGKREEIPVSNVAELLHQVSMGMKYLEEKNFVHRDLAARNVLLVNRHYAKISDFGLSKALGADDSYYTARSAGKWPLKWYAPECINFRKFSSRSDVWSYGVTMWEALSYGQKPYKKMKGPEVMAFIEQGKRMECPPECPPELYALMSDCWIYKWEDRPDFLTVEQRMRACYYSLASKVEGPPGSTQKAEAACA", "chain of UniProt P21554 (whole entry, looked up)": "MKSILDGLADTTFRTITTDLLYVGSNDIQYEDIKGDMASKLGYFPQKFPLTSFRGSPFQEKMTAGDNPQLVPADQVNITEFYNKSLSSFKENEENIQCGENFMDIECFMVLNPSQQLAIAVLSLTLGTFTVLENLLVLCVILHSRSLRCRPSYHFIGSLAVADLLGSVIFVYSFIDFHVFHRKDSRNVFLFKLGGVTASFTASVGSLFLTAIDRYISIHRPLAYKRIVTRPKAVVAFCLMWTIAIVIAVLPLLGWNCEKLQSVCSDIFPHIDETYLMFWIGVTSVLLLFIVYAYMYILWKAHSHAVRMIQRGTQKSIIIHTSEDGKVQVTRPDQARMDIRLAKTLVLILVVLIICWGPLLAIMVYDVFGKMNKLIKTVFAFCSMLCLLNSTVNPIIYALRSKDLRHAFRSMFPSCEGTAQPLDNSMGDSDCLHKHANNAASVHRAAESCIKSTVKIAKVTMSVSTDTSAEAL", "chain of UniProt Q86Y26 (whole entry, looked up)": "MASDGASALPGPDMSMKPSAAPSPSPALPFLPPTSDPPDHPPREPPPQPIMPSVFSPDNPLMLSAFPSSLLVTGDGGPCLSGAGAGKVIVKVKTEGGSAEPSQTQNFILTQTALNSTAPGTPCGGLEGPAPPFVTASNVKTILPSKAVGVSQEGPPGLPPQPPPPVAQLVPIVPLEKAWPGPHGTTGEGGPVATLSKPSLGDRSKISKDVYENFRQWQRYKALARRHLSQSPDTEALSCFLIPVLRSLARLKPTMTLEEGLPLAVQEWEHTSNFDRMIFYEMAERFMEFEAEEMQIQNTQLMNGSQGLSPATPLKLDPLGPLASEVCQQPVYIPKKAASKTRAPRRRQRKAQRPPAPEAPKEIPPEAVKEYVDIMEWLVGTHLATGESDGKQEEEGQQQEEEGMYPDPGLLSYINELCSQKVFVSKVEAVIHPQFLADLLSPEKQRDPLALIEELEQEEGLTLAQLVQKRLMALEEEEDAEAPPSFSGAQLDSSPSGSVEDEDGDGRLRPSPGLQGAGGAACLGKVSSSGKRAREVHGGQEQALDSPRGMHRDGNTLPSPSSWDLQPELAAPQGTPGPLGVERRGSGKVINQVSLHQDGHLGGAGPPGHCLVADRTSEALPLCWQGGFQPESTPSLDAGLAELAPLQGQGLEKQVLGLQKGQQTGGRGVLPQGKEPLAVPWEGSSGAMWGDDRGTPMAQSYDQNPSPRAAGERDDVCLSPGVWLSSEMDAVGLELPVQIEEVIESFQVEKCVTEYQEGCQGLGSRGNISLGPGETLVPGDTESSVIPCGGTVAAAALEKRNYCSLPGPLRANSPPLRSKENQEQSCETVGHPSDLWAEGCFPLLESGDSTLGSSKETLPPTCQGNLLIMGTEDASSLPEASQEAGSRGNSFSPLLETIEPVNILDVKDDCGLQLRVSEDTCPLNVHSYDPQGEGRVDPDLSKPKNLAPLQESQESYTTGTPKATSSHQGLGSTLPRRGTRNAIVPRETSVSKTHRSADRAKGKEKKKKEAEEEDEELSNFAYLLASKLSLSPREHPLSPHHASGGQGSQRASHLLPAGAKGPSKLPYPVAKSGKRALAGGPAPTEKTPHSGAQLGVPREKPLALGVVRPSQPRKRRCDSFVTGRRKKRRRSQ", "chain of UniProt P07947 (whole entry, looked up)": "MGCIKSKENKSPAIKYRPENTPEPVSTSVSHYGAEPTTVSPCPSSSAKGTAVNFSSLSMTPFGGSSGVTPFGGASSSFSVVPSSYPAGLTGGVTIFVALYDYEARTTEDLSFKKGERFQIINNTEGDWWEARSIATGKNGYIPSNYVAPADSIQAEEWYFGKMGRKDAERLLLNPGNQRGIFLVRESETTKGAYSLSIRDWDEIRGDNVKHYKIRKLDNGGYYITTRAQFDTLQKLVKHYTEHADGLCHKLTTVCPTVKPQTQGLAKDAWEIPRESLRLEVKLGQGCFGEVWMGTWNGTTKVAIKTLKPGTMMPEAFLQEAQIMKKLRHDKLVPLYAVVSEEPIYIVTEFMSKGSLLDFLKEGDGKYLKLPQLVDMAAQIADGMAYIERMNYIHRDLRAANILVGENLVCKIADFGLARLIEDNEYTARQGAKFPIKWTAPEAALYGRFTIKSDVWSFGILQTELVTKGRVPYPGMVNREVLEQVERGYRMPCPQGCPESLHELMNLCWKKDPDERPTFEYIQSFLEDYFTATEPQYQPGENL"}
{"SMILES": "Cc1ccc2c(C(C[N+](=O)[O-])c3cccs3)c(-c3ccccc3)[nH]c2c1 (stereo not drawn)", "target": "Cannabinoid receptor 1, with GoB (CNR1, Homo sapiens, UniProt P21554)", "test": "GoB dissociation, agonist, BRET", "endpoint": "Emax", "result": "60.1 ± 4.56%"}
{"SMILES": "CC(C)[C@H]1NC(=O)C[C@H]2/C=C/CCSSC[C@@H](NC1=O)C(=O)N[C@H](Cc1cccc3ccccc13)C(=O)NCC(=O)O2", "target": "Fibroblast growth factor receptor 4 (FGFR4, Homo sapiens, UniProt P22455)", "test": "enzyme activity, inhibitor", "conditions": "10 µM", "endpoint": "inhibition", "result": "0.5%"}
{"SMILES": "CS(C)(=O)=Nc1ccc(-c2ccc(-c3nc4cc(O[C@@H]5CO[C@H]6[C@@H]5OC[C@H]6O)[nH]c4cc3F)cc2)cc1", "target": "Tyrosine-protein kinase Yes (YES1, Homo sapiens, UniProt P07947)", "test": "enzyme activity, inhibitor", "conditions": "10 µM", "endpoint": "inhibition", "result": "5%"}
{"SMILES": "O=C1NC(=O)c2c1c1cc(F)c[n+]3c1c1c2c2cc(O)ccc2[n]1[Ru-4]312([N]=C=S)[S+]3CC[S+]1CC[S+]2CC3 (stereo not drawn)", "target": "Tyrosine-protein kinase ZAP-70 (ZAP70, Homo sapiens, UniProt P43403)", "test": "enzyme activity", "conditions": "100 nM, human enzyme, with: 10 µM ATP", "scale": "reference: untreated", "endpoint": "remaining activity", "result": "134%"}
{"SMILES": "CN(C)[C@H]1C[C@@]23CC[C@@]4(O2)C(=CC[C@]2(C)[C@@H](c5ccc6ccncc6c5)CC[C@H]24)C=C3[C@@H](O)[C@@H]1O", "target": "Protein kinase C iota type (PRKCI, Homo sapiens, UniProt P41743)", "test": "ATP probe labelling, inhibitor, KiNativ profiling", "conditions": "1 µM", "endpoint": "inhibition", "result": "9.6%"}
{"SMILES": "Cc1cccc(CC(=O)N[C@H]2CCOC2=O)c1", "target": "Regulatory protein SdiA (sdiA, Escherichia coli, UniProt P07026)", "endpoint": "Emax", "result": "88.8%"}
{"SMILES": "Cc1sc2c(c1C)C(c1ccc(Cl)cc1)=N[C@@H](CC(=O)OC(C)(C)C)c1nnc(C)n1-2", "target": "NUT family member 1 (NUTM1, Homo sapiens, UniProt Q86Y26)", "test": "FRAP", "system": "U2OS", "conditions": "250 nM", "endpoint": "protein redistribution", "result": "no effect"}
{"SMILES": "N[C@H](C(=O)N1CCCC1)C1CCN(c2nccc3c(-c4ncc(Cl)cc4Cl)cccc23)CC1", "target": "Serine/threonine-protein kinase 26 (STK26, Homo sapiens, UniProt Q9P289)", "test": "kinase activity, inhibitor", "conditions": "10 µM, with: ATP 1 mM", "endpoint": "inhibition", "result": "2.7%"}
{"SMILES": "Nc1ccc(/C=C/C(=O)N2CCc3c(oc4c(-c5ccc(F)cc5)cc(-c5ccc(C(=O)N6CCC(F)(F)CC6)cn5)cc34)C2)cn1", "target": "Serine/threonine-protein kinase pim-1 (PIM1, Homo sapiens, UniProt P11309)", "test": "binding, competition with immobilised ligand", "conditions": "1 µM", "endpoint": "remaining binding", "result": "93%"}
{"note": "A few entries again:"}
{"SMILES": "N[C@H](C(=O)N1CCCC1)C1CCN(c2nccc3c(-c4ncc(Cl)cc4Cl)cccc23)CC1", "target": "Serine/threonine-protein kinase 26 (STK26, Homo sapiens, UniProt Q9P289)", "test": "kinase activity, inhibitor", "conditions": "10 µM, with: ATP 1 mM", "endpoint": "inhibition", "result": "2.7%"}
